# Values quoted from earlier work that unrelated publications cite.
# Values joined by “and” are separate records of one study, mostly repeats; a detail may differ. ± gives the spread as reported.
# Sequence of UniProt Q96BR1 (whole entry, looked up): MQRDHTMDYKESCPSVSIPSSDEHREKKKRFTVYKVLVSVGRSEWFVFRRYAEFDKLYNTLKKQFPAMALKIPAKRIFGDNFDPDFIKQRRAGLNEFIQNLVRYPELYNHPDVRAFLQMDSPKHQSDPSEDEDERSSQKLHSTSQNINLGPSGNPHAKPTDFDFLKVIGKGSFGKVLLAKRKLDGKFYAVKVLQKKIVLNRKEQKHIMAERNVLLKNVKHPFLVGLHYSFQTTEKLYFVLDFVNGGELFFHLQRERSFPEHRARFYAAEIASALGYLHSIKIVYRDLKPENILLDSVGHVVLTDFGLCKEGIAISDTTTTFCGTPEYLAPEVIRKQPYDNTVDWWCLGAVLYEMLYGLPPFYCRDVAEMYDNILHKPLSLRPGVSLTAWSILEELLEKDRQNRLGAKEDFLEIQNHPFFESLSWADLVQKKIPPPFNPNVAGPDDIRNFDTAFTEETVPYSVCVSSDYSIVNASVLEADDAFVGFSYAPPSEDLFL
# Sequence of UniProt P42336 (whole entry, unmodified, looked up): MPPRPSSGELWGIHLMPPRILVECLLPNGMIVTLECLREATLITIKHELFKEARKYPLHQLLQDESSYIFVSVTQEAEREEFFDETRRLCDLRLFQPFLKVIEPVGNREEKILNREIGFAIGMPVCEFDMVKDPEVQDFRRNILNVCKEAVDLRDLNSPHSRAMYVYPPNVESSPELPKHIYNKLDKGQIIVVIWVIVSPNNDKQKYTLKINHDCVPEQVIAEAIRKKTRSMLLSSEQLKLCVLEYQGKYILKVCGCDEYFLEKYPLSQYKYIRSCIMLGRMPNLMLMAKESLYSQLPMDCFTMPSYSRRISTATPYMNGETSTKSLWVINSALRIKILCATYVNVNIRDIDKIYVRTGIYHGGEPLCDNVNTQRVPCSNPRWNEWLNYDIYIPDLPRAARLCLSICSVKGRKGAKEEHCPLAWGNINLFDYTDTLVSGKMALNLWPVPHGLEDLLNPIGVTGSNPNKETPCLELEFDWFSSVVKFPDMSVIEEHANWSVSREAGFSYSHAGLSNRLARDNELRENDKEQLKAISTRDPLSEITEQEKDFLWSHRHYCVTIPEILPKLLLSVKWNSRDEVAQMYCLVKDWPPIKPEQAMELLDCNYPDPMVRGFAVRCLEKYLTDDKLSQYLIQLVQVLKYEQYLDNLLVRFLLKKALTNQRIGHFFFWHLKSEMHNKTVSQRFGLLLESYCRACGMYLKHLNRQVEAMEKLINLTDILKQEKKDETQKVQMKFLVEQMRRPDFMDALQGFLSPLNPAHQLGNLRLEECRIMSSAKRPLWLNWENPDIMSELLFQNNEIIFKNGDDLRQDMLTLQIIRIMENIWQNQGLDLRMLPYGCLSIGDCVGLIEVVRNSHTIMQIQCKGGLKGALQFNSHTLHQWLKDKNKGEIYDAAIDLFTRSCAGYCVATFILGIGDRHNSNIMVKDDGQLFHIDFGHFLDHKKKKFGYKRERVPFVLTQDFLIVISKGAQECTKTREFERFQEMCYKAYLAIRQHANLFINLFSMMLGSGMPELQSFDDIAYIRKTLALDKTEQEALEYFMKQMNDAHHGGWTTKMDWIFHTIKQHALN
# Sequence of UniProt Q9Y243 (whole entry, looked up): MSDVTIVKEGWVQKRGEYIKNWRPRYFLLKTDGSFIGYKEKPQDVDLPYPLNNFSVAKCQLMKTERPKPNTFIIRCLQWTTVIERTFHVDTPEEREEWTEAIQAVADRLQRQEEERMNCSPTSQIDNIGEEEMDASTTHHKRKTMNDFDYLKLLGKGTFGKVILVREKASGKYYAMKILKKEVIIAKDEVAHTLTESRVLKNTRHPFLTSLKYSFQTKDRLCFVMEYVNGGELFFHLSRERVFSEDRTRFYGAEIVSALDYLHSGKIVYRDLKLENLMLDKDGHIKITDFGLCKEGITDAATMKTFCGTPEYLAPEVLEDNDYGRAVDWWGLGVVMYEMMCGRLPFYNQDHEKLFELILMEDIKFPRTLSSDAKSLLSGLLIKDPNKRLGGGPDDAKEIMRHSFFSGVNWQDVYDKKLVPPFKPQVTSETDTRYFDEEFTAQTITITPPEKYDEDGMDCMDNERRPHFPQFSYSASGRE
SMILES,target or system,test,test system,setting,how to read,measurement,value
Nc1cccc2c1C(=O)N(C1CCC(=O)NC1=O)C2=O (centres unmarked),,,relapsed refractory multiple myeloma patients,"dose not given, alternate-day dosing",,progression-free survival,10.5 months
Cc1cc(NC(=O)c2cccc(NC(=O)/C=C/CN(C)C)c2)ccc1Nc1nccc(-c2cccnc2)n1,"SGK3 (Homo sapiens, UniProt Q96BR1)","enzyme activity, inhibitor",,1 µM,reference: vehicle,remaining activity,48%
COc1ccccc1Oc1cccc(CN2CCC(NC(=O)C3CC(=O)Nc4ccccc43)CC2)c1 (centres unmarked),human CCR8 Q91W mutant (TM2),"IP accumulation, agonist",,,,EC50,201 nM
CCc1cn2c(C3C(C(=O)OC)=C(C)NC(C)=C3C(=O)OC)c(-c3cc(OC)ccc3OC)nc2s1,,calcium-induced contraction,guinea pig aortic strip,"50 µM, added: K+ 80 mM depolarisation",,inhibition,29 ± 2.4%
C[C@H]1COCCN1c1nc(-c2cnc(N)cc2C(F)F)nc(N2CCOCC2)n1,U-2 OS,,,,,GI50,311 nM
CC1(C)S[C@@H]2[C@H](NC(=O)[C@H](N)c3ccccc3)C(=O)N2[C@H]1C(=O)O,Pseudomonas aeruginosa,,clinical isolate RKI-No_40/14,,,MIC,> 16 µg/mL
NC(=S)NN=Cc1ncccc1N,,,cervical cancer patients,"dose not given, 3 years, randomized phase II, added: IV cisplatin plus radiation",,progression-free survival,92%
C=CC(=O)N1CCC(C(=O)NCC(=O)N2CCN(c3nc(-c4cnc(N)nc4C(F)F)nc(N4CCOCC4)n3)CC2)CC1,"PIK3CA (Homo sapiens, UniProt P42336, E545A)",kinase activity,,1 µM,,remaining activity,0.5%
Cc1cc(C)c(CNC(=O)c2cc(Cl)c3c(c2C)O[C@@](C)([C@H]2CC[C@H](N(C)C)CC2)O3)c(=O)[nH]1,,,relapsed/refractory PTCL patients,200 mg/day,,objective response rate,43.7%
COC(=O)[C@H](Cc1ccccc1)NC(=O)[C@@H](N)CC(=O)O,,sensory evaluation,"human sensory panel, water",,reference: sucrose,sweetness potency,200 × sucrose
Cc1nn(C)cc1S(=O)(=O)NC(=O)c1ccc(-n2ccc(OCC(C)(C)C(F)(F)F)n2)nc1N1C[C@@H](C)CC1(C)C,,"clinical exposure-response, item: sweat chloride","human, cystic fibrosis",added: tezacaftor/ivacaftor,,EC50,0.4 µg/mL
COc1cc(NC(=O)CCN2CCC(OC(=O)Nc3ccccc3-c3ccccc3)CC2)c(Cl)cc1CNC[C@H](O)c1ccc(O)c2[nH]c(=O)ccc12,,,COPD patients,"inhaled, 400 µg once daily, 24 h postdose, dosing day 1",reference: baseline,placebo-corrected trough FEV1 change,146 mL
C[N+](C)(C)c1ccc2c(c1)C#Cc1ccc([N+](C)(C)C)cc1C#C2.O=C([O-])C(F)(F)F.O=C([O-])C(F)(F)F,,UV spectroscopy,methanol,"room temperature, added: benzyl azide",,second-order rate constant,0.171 M⁻¹ s⁻¹ and 0.176 M⁻¹ s⁻¹
CC1(C)CCC(CN2CCN(c3ccc(C(=O)NS(=O)(=O)c4ccc(NCC5CCOCC5)c([N+](=O)[O-])c4)c(Oc4cnc5[nH]ccc5c4)c3)CC2)=C(c2ccc(Cl)cc2)C1,,,"human, AML","concentration not given, added: low-dose cytarabine",,complete remission rate,21%
C=CCc1ccc(OC)c(OC)c1,,,"human, water",,,odour detection threshold,820 µg/kg
CCOc1cc(C(C)(C)C)ccc1C1=N[C@@](C)(c2ccc(Cl)cc2)[C@@](C)(c2ccc(Cl)cc2)N1C(=O)N1CCN(CCCS(C)(=O)=O)CC1,,,"human, AML","dose not given, phase Ib, added: cytarabine",,complete response rate,17%
Cc1c(C#N)cccc1[C@@H](C)Nc1nnc(C)c2cnc(N3CCOCC3)cc12,NCI-H1975,3D cell viability,,14 d,,IC50,15.2 ± 8 nM
CCNCCc1ccc(CN(CC)c2cc(OC)ccc2[C@@H]2CCc3cc(O)ccc3C2)cc1,,,"human, ER-positive HER2-negative breast cancer, ESR1 mutation",concentration not given,,clinical benefit rate,25%
N[C@H](C(=O)O)c1cc(O)cc(O)c1,,,hippocampal CA1 Schaffer collateral synapse,concentration not given,reference: baseline,fEPSP slope,-0.7 ± 1.3%
C[N+]1(C)CCC(OC(=O)C(O)(c2ccccc2)C2CCCC2)C1 (centres unmarked),,,COPD patients,"inhaled, 100 µg once daily, 24 h postdose, dosing day 7",reference: baseline,placebo-corrected trough FEV1 change,141 mL
C=CC(=O)Nc1cc(Nc2nccc(-c3cn(C)c4ccccc34)n2)c(OC)cc1N(C)CCN(C)C,,,patients with EGFR-mutant NSCLC,"dose not given, second-line clinical trial",,objective response rate,71%
CCO[C@H]1CCN(Cc2c(OC)cc(C)c3[nH]ccc23)[C@H](c2ccc(C(=O)O)cc2)C1,,,patients with PNH,"dose not given, 12 weeks",reference: patients,patients reaching LDH reduction endpoint,≥ 60%
Nc1cc(C(F)(F)F)c(-c2nc(N3CCOCC3)nc(N3CCOCC3)n2)cn1,"AKT3 (Homo sapiens, UniProt Q9Y243)",enzyme activity,,10 µM,reference: untreated,remaining activity,97%
Cc1ccc(C)c(OCCCC(C)(C)C(=O)O)c1,,,"HIV-negative individuals, plasma",concentration not given,,triglyceride decrease,59.3%
CNC(C)C1CCC(N)C(OC2C(N)CC(N)C(OC3OCC(C)(O)C(NC)C3O)C2O)O1 (centres unmarked),Pseudomonas aeruginosa,,clinical isolate RKI-No_25/14,,,MIC,8 µg/mL
COC[C@@H](c1ccc(C(F)(F)F)cc1)N1CCN(C2(C)CCN(C(=O)c3c(C)ncnc3C)CC2)C[C@@H]1C,,,treatment-naive HIV subjects,"75 mg once daily, day 14, monotherapy without ritonavir",,HIV RNA reduction,1.34 log10 copies/mL
O=C(c1cccnc1-c1ccncc1)N1CCC(O)(Cc2ccccc2)CC1,,,human adults,"dose not given, open-label maintenance phase",,seizure frequency reduction,36.4%
COc1ccccc1Oc1cccc(CN2CCC(NC(=O)C(CCN3CCCC3)c3ccccc3)CC2)c1 (centres unmarked),human CCR8 Q91W mutant (TM2),"IP accumulation, agonist",,,,EC50,161 nM
Cc1c(C(=O)Nc2ccc(N3C[C@@H](C)O[C@@H](C)C3)nc2)cccc1-c1ccc(OC(F)(F)F)cc1,,"item: Gli1 mRNA, stromal",mouse,"40 mg/kg/day, daily dosing",,time to nadir,~72 h
